Experimental data pooled from the literature.
A part holds a random share of what one study measured.
Chain of UniProt Q99986 (whole entry, looked up): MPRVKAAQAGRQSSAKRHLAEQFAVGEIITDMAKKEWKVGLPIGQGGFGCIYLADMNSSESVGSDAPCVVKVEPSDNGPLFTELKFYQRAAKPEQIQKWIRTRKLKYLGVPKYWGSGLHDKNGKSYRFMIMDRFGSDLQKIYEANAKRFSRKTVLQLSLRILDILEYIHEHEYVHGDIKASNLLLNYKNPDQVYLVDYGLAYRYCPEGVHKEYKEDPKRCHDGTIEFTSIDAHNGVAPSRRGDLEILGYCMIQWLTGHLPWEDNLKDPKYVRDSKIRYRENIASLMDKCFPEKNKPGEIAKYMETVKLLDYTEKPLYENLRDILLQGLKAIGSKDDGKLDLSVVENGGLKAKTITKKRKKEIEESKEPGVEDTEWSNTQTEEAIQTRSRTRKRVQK
Chain of UniProt O75747 (whole entry, looked up): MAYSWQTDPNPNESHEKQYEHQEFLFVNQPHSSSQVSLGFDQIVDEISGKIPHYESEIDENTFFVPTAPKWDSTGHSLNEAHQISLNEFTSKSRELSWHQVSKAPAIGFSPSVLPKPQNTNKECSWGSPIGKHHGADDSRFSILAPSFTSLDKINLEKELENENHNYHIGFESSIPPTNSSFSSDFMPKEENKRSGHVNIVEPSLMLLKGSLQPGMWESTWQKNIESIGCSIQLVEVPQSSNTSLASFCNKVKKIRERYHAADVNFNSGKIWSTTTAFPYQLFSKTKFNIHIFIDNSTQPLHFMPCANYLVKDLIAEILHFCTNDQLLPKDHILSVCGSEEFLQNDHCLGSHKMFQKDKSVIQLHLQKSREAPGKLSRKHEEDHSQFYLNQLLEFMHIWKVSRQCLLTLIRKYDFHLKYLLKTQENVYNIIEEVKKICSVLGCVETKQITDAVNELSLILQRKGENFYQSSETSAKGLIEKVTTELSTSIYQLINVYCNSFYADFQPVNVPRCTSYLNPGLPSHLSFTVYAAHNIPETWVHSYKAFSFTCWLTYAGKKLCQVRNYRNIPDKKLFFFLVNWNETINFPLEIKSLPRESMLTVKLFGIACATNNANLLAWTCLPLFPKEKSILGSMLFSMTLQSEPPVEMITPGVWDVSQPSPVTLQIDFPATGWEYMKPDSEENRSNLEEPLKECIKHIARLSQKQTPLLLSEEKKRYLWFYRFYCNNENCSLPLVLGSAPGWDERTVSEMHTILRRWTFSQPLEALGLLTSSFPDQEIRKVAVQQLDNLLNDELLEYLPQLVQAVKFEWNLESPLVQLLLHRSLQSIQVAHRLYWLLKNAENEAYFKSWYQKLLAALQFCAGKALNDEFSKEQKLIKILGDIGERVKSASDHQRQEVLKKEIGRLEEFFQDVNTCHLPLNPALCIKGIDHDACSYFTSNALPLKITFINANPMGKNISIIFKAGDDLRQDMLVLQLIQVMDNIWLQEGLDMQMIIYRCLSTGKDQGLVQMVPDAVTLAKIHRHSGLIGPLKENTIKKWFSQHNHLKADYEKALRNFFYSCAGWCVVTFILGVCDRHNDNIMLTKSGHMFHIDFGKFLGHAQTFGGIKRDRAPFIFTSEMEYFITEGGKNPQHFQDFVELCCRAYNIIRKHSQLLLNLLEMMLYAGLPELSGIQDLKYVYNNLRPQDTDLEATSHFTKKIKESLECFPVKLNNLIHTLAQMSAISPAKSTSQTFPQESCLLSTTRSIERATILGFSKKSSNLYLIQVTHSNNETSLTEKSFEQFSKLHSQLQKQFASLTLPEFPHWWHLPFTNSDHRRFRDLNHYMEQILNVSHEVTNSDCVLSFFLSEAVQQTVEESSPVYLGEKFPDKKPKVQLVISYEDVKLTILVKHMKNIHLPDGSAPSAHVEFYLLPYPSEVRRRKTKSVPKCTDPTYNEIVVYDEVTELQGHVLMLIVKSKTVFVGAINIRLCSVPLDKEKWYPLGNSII
Chain of UniProt Q9UPE1 (whole entry, looked up): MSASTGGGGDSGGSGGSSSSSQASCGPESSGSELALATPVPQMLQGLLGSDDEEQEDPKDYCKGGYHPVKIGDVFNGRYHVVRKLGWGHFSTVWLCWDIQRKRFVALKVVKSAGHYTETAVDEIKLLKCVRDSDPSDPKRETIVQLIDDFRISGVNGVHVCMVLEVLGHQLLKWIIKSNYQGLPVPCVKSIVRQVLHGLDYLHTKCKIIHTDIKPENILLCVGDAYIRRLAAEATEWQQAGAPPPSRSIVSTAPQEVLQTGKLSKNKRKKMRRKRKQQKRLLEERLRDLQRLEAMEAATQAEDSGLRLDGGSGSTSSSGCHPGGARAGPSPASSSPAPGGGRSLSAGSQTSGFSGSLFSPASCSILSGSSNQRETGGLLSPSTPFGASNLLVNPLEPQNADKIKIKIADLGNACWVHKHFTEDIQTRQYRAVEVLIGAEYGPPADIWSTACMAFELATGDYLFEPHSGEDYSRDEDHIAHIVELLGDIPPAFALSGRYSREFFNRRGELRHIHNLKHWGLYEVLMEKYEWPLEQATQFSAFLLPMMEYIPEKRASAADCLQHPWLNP
Chain of UniProt P42681 (whole entry, looked up): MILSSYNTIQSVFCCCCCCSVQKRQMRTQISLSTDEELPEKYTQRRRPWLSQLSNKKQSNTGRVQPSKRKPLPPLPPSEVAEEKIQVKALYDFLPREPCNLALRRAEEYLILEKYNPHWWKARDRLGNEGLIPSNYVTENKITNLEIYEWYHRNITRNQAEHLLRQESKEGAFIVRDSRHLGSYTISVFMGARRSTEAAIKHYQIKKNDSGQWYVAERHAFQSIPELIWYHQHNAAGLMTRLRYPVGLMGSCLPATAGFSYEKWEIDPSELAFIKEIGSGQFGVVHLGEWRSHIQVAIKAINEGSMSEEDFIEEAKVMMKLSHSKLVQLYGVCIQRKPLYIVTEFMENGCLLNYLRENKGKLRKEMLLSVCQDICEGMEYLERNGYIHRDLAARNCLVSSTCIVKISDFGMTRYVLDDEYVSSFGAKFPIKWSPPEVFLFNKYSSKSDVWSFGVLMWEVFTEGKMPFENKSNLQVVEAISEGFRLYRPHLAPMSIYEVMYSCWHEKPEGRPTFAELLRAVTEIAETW
Chain of UniProt Q8NG66 (whole entry, looked up): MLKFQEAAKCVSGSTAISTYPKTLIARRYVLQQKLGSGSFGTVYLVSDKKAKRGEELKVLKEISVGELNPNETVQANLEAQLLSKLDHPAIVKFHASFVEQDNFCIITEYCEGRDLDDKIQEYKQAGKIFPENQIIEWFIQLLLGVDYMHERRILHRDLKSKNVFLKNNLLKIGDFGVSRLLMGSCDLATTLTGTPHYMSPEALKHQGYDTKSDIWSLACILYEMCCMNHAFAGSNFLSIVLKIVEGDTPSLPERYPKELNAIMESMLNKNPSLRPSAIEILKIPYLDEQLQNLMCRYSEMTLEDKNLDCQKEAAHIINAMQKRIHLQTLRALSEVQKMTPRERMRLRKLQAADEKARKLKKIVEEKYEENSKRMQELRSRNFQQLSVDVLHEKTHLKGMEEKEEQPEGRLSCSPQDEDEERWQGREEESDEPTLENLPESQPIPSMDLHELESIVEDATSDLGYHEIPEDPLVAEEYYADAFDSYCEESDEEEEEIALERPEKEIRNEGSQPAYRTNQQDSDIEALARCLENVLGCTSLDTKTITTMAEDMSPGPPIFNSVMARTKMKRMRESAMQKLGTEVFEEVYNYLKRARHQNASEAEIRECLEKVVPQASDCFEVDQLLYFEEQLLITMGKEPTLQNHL
Chain of UniProt Q8IY84 (whole entry, looked up): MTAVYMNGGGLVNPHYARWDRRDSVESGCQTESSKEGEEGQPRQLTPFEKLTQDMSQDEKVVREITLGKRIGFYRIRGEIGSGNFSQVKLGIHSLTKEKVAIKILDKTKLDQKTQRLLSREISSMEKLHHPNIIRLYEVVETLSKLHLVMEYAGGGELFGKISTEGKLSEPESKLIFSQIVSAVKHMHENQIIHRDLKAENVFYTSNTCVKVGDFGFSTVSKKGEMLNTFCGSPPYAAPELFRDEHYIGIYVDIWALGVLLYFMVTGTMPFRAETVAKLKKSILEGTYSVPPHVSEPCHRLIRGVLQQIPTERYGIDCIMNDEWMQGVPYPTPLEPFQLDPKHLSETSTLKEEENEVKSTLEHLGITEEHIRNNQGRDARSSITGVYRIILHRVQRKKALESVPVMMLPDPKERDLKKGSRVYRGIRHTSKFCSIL
Chain of UniProt O94768 (whole entry, looked up): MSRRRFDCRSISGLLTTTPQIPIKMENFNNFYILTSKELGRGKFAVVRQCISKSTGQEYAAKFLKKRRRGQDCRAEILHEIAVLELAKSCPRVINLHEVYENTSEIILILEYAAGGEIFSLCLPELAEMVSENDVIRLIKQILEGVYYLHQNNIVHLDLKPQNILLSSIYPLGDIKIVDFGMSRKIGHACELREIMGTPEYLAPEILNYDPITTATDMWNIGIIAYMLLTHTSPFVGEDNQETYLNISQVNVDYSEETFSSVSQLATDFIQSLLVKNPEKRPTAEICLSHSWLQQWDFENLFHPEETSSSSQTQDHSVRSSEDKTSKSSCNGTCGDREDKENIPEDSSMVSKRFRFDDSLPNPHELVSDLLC

Series 1
Organism: Sarcocystis neurona
Effect on: parasite growth
Concentration: 10 µM
Endpoint: inhibition
SMILES = CCCCCCCCCCC[C@@H](C[C@@H]1OC(=O)[C@H]1CCCCCC)OC(=O)[C@H](CC(C)C)NC=O; value = 25.1%
SMILES = OCCN(CCO)c1nc(N2CCCCC2)c2nc(N(CCO)CCO)nc(N3CCCCC3)c2n1; value = -27.8%
SMILES = CC(C)(C)NCC(O)COc1cccc2c1CC(O)C(O)C2 (stereo not drawn); value = -26.1%
SMILES = Nc1nnc(-c2cccc(Cl)c2Cl)c(N)n1; value = -23.5%
SMILES = COc1cc(/C=C/c2ccc(O)cc2)cc(OC)c1; value = -103%
SMILES = CC(C)[N+]1(C)[C@@H]2CC[C@H]1CC(OC(=O)C(CO)c1ccccc1)C2.[Br-] (stereo partly drawn); value = -23.3%
SMILES = COc1cc(C)c(/C=C/C(C)=C/C=C/C(C)=C/C(=O)O)c(C)c1C; value = -69.1%
SMILES = O=C(O)C[C@H](O)C[C@H](O)/C=C/c1c(C2CC2)nc2ccccc2c1-c1ccc(F)cc1; value = 5.9%

Series 2
SMILES: CC(C)S(=O)(=O)c1ccc2nccc(Nc3ccc4sc(C5CCCC5)nc4c3)c2c1.Cl
Effect on: kinase activity
Action: inhibitor
Concentration: 1 µM
Endpoint: remaining activity
target = VRK1 (Homo sapiens, UniProt Q99986); value = 89%
target = DYRK1A (Homo sapiens, UniProt Q13627); value = 96%
target = SRPK3 (Homo sapiens, UniProt Q9UPE1); value = 104%
target = STK17B (Homo sapiens, UniProt O94768); value = 95%
target = DCLK3 (Homo sapiens, UniProt Q9C098); value = 97%
target = TXK (Homo sapiens, UniProt P42681); value = 85%
target = PRKX (Homo sapiens, UniProt P51817); value = 105%
target = PIK3C2G (Homo sapiens, UniProt O75747); value = 96%
target = NEK11 (Homo sapiens, UniProt Q8NG66); value = 91%
target = CSK (Homo sapiens, UniProt P41240); value = 74%

Series 3
Target: Serine/threonine-protein kinase 24 (STK24, Homo sapiens, UniProt Q9Y6E0)
Chain of UniProt Q9Y6E0 (whole entry, looked up): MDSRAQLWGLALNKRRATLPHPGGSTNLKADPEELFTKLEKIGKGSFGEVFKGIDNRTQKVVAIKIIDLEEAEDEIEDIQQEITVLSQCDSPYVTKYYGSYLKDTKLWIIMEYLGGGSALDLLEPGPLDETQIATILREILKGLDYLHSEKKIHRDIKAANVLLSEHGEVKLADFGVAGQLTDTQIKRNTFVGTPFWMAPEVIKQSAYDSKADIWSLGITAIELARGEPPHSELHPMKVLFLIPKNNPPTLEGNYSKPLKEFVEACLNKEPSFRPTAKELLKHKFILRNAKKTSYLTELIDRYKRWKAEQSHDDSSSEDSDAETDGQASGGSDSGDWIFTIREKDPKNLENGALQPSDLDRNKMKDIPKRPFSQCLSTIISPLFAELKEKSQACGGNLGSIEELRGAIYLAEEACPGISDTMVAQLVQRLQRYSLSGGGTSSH
Effect on: enzyme activity
Action: inhibitor
Concentration: 0.5 µM
Reference: control
Endpoint: remaining activity
SMILES = O=C(CCCc1ccc(-c2ccccc2F)cc1)Nc1ccc(O)cc1; value = 88.9%
SMILES = Cn1sc(=O)n(Cc2ccccc2)c1=O; value = 105%
SMILES = O=C(Nc1cccc(Nc2cc(Nc3cccc(C(F)(F)F)c3)ncn2)c1)C1CC1; value = 97.1%
SMILES = Cn1c2ccccc2c2c3c(c4c5ccccc5n(CCC#N)c4c21)CNC3=O; value = 62.8%
SMILES = Nc1ccc2ncnc(NCCc3ccc(Oc4ccccc4)cc3)c2c1; value = 107%
SMILES = O=C1NC(=O)C(c2cn(CCCO)c3ncccc23)=C1c1cnccn1; value = 72.1%
SMILES = C#Cc1cccc(Nc2ncnc3cc(OCCOC)c(OCCOC)cc23)c1; value = 115%
SMILES = O=S(=O)(c1cccc2cnccc12)N1CCCNCC1; value = 70.2%
SMILES = COc1ccc(C(=O)Nc2sc3c(c2C(N)=O)CCCC3)cc1OC; value = 93.9%
SMILES = Cc1nc(-c2ccccc2)c(-c2ccncc2)o1; value = 96.7%
SMILES = COc1ccc(CNC(=O)Nc2ncc([N+](=O)[O-])s2)cc1; value = 93.6%
SMILES = COc1cc2nccc(Oc3ccc(NC(=S)NC(=O)c4ccccc4C)cc3)c2cc1OC; value = 101%
SMILES = CCOC(=O)c1c(C)[nH]c(/C=C2\C(=O)Nc3ccccc32)c1C; value = 82.5%
SMILES = O=c1c2ccccc2[nH]c(=S)n1CCN1CCC(=C(c2ccc(F)cc2)c2ccc(F)cc2)CC1; value = 93.4%
SMILES = CO[C@H]1C[C@@H]2CC[C@@H](C)[C@@](O)(O2)C(=O)C(=O)N2CCCC[C@H]2C(=O)O[C@H]([C@H](C)C[C@@H]2CC[C@@H](O)[C@H](OC)C2)CC(=O)[C@H](C)/C=C(\C)[C@@H](O)[C@@H](OC)C(=O)[C@H](C)C[C@H](C)/C=C/C=C/C=C/1C; value = 93.5%

Series 4
SMILES: CCCCN(CCCC)C(=O)CN1C[C@H](c2cc(OC)c3c(c2)OCO3)[C@@H](C(=O)O)[C@@H]1CC(C)(C)CCC
Effect on: cell-free assay
Technique: competition with immobilised ligand
Concentration: 1 µM
Endpoint: remaining binding
target = STK39 (Homo sapiens, UniProt Q9UEW8); value = 100%
target = ULK2 (Homo sapiens, UniProt Q8IYT8); value = 88.8%
target = NUAK2 (Homo sapiens, UniProt Q9H093); value = 79.4%
target = CSNK2A2 (Homo sapiens, UniProt P19784); value = 98.4%
target = NIM1K (Homo sapiens, UniProt Q8IY84); value = 100%
target = Myosin-IIIa (MYO3A, Homo sapiens, UniProt Q8NEV4); value = 100%
